{"data": "Experimental data pooled from the literature", "ROP18": "ROP18 (Toxoplasma gondii, UniProt Q2PAY2)", "note": "Lines come from different studies, so protocols differ. “And” joins repeats or separate records; there may be more than shown. ± marks the error that the study gave.", "chain of UniProt P81908 (whole entry, looked up)": "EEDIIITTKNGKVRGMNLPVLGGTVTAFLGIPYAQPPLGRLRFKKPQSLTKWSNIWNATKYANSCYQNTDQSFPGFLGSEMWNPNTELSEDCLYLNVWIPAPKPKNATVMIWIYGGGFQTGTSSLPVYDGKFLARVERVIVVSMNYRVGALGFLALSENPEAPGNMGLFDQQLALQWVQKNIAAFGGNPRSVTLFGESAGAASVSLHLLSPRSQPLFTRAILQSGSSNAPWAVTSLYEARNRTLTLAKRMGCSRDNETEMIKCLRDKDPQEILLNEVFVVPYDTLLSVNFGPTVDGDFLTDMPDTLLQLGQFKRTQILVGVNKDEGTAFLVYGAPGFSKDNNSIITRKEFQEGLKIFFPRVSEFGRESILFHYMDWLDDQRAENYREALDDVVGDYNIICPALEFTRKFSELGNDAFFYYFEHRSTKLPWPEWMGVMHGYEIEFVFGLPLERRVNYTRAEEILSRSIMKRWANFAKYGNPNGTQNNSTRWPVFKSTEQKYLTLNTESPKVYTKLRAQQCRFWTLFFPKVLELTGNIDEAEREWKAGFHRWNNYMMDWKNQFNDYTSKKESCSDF", "chain of UniProt P14650 (whole entry, looked up)": "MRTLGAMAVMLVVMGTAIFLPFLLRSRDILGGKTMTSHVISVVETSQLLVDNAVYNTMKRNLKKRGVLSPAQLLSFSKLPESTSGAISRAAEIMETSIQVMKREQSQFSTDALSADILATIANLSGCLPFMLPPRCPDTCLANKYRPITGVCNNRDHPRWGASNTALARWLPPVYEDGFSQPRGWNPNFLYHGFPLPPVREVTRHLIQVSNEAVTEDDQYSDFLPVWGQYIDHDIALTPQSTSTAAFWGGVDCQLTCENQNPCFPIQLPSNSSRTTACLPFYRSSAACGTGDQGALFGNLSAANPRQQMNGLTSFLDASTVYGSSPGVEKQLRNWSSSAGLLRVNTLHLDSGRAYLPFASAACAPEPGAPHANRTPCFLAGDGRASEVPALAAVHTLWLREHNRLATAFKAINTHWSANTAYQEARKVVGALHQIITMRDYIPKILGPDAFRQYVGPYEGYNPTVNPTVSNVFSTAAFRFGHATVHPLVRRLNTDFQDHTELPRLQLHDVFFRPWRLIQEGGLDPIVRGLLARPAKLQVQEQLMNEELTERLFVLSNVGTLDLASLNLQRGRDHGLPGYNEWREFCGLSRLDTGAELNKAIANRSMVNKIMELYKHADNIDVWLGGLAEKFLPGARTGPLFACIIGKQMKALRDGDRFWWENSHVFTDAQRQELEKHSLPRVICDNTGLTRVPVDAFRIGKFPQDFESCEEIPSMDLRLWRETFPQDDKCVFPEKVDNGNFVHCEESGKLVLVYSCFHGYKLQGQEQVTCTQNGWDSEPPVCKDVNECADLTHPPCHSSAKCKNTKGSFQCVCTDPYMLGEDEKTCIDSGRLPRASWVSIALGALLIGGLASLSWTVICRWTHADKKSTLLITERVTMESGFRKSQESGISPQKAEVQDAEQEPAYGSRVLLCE", "chain of UniProt Q2PAY2 (whole entry, looked up)": "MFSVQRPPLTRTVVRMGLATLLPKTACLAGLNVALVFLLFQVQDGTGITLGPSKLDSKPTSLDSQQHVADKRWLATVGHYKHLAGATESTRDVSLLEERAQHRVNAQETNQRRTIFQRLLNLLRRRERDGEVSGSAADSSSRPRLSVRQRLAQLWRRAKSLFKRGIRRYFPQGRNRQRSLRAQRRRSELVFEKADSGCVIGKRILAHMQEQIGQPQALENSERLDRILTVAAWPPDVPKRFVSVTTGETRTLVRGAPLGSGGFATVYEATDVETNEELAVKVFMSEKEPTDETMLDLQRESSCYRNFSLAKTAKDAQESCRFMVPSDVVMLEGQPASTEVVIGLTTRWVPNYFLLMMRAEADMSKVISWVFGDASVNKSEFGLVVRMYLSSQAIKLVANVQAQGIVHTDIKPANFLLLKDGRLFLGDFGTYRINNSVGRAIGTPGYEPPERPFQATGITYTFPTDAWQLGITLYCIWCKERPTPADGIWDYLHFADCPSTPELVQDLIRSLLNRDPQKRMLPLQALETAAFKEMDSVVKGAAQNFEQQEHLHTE", "chain of UniProt Q9BYW2 (whole entry, looked up)": "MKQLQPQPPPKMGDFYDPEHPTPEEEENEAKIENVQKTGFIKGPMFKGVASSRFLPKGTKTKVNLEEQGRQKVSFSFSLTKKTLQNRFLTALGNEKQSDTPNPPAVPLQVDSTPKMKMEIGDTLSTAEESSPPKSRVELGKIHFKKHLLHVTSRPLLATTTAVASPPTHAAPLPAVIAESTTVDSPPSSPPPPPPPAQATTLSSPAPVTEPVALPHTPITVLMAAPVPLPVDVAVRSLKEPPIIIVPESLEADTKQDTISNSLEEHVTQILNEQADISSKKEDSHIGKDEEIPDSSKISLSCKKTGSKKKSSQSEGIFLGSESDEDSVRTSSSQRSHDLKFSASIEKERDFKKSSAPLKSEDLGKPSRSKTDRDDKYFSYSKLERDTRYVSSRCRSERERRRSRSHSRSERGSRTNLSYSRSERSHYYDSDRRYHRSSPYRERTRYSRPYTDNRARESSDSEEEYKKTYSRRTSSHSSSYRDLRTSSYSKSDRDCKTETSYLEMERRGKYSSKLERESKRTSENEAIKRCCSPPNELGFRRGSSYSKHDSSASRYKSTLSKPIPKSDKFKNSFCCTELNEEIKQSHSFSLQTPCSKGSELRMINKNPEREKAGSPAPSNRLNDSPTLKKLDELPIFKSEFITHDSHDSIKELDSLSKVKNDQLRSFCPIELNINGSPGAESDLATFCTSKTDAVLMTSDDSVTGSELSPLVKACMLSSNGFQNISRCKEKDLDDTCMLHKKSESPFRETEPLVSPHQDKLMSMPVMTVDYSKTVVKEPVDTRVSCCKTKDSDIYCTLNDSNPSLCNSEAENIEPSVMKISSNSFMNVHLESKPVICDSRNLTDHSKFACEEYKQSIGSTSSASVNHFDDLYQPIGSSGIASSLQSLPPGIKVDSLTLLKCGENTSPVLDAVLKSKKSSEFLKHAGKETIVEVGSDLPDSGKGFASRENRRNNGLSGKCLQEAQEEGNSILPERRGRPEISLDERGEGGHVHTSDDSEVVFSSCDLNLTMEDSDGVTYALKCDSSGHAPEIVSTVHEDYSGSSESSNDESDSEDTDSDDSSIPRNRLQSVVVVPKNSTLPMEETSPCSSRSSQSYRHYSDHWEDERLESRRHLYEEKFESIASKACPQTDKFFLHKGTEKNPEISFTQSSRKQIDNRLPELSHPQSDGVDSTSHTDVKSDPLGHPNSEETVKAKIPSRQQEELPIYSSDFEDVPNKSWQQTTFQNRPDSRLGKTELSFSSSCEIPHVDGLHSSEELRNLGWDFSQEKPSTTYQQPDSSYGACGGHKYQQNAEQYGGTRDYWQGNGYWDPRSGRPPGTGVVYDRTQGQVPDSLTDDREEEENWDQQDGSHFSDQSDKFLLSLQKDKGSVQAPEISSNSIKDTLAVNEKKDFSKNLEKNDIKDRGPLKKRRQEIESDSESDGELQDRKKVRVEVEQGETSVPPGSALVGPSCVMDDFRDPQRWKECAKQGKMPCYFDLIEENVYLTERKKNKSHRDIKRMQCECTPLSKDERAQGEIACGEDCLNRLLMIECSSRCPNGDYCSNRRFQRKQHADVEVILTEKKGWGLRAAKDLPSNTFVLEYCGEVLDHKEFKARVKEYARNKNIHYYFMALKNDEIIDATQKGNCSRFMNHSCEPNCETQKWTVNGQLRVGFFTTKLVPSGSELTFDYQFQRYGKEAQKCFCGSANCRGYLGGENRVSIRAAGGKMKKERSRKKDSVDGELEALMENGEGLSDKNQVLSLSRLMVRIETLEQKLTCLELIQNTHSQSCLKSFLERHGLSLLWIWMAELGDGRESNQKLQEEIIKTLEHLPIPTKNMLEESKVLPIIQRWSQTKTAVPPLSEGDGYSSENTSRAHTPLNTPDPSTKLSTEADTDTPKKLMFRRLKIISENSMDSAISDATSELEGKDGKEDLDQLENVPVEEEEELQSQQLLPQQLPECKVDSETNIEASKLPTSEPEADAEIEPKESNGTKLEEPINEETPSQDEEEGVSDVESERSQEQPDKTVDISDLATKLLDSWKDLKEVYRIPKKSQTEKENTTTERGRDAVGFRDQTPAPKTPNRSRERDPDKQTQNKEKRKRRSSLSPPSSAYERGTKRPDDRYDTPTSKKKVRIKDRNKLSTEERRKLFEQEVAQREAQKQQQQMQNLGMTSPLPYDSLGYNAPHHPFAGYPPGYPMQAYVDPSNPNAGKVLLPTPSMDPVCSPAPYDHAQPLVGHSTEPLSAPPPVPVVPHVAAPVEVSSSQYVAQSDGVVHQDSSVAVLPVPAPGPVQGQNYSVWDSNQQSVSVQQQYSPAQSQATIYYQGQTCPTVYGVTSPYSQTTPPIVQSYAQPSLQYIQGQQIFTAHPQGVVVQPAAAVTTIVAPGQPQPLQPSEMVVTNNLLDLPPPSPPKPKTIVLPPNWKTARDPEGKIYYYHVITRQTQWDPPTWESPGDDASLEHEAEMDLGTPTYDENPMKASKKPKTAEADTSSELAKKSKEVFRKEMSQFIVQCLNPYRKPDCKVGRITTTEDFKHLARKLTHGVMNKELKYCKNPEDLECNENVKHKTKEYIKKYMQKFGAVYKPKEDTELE", "chain of UniProt P39135 (whole entry, looked up)": "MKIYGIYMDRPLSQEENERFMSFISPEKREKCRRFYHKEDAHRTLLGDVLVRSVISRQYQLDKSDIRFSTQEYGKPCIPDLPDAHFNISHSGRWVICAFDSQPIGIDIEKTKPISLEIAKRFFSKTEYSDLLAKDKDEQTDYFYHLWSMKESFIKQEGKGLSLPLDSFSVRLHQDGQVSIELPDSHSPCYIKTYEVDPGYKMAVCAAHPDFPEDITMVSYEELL"}
{"SMILES": "CCCCOc1c(Br)cc(C(c2c(O)c3ccccc3oc2=O)c2c(O)c3ccccc3oc2=O)cc1Br", "target": "Alpha-glucosidase MAL12 (MAL12, Saccharomyces cerevisiae S288c, UniProt P53341)", "test": "enzyme activity, inhibitor, absorbance", "conditions": "pH 6.9", "IC50": "620 nM"}
{"SMILES": "N#CCCc1ccc2c(c1)-c1[nH]c3ccc([N+](=O)[O-])cc3c1CC(=O)N2", "target": "GSK3, short isoform (Trypanosoma brucei, UniProt Q388M1)", "test": "enzyme activity, inhibitor", "conditions": "90 min, 30 °C, with: ATP 2 µM", "IC50": "1050 nM"}
{"SMILES": "N#Cc1cccc(OC(=O)NCCCCCn2ccc3ccc(F)cc32)c1", "target": "Cholinesterase (BCHE, Equus caballus, UniProt P81908)", "test": "enzyme activity, inhibitor, HPLC", "IC50": "380 nM"}
{"SMILES": "C=CC=O", "target": "Thioredoxin reductase 2, mitochondrial, α-methylselenocysteine semisynthetic variant (Txnrd2, Mus musculus, UniProt Q9JLT4)", "test": "enzyme activity, inhibitor", "conditions": "10 min, pH 7, 22 °C, pre-reduced enzyme, with: Trx 150 µM", "IC50": "57 nM"}
{"SMILES": "CC(C)COC(=O)c1ccc2c(c1)/C(=C/Nc1ccc(S(N)(=O)=O)cc1)C(=O)N2", "target": "ROP18", "test": "enzyme activity, inhibitor", "IC50": "170 nM"}
{"SMILES": "NC(=S)Nc1ccccc1", "target": "Thyroid peroxidase (Tpo, Rattus norvegicus, UniProt P14650)", "test": "enzyme activity, inhibitor, LC-MS/MS, measured: monoiodotyrosine", "test system": "rat thyroid microsomes", "conditions": "with: L-tyrosine substrate", "IC50": "3510 nM and 2170 nM"}
{"SMILES": "CSCC[C@H](NC(=O)[C@H](C)N)C(=O)N[C@@H](CCCNC(=N)N)C(=O)N[C@@H](CC(C)C)C(=O)N[C@H](C(=O)N[C@@H](Cc1c[nH]cn1)C(=O)N[C@@H](CC(N)=O)C(=O)N[C@@H](Cc1ccccc1)C(=O)N[C@@H](Cc1ccccc1)C(=O)N[C@@H](Cc1ccccc1)C(=O)N[C@@H](CC(N)=O)C(=O)N[C@@H](Cc1ccccc1)C(=O)N[C@@H](Cc1ccccc1)C(=O)N[C@@H](CCCCN)C(=O)N[C@@H](CCCNC(=N)N)C(=O)N[C@@H](CCCNC(=N)N)C(=O)O)[C@@H](C)O", "target": "histidine kinase ComD (Streptococcus pneumoniae serotype 4, UniProt A0A0H2US84)", "test": "reporter gene, antagonist", "test system": "Streptococcus pneumoniae, TIGR4 comX::lacZ", "conditions": "30 min, 37 °C, with: CSP2 250 nM", "IC50": "> 10000 nM"}
{"SMILES": "COc1cc2c(cc1O)CC[n+]1cc3c(OC)c(OC)ccc3c(C)c1-2", "target": "D(4) dopamine receptor (DRD4, Homo sapiens, UniProt P21917)", "test": "calcium mobilization, antagonist, FLIPR", "test system": "HEK293T with Galpha15", "conditions": "10 min preincubation, D4 receptor, with: dopamine at EC50", "IC50": "8400 nM"}
{"SMILES": "O=C(O)c1ccccc1Nc1ccc(Cc2ccccc2)cc1", "target": "Androgen receptor (AR, Homo sapiens, UniProt P10275)", "test": "reporter gene, antagonist, MMTV-Luc reporter", "test system": "MDA-kb2", "conditions": "20 h, with: 0.2 nM DHT (EC50)", "IC50": "2200 ± 1000 nM"}
{"SMILES": "CN1C(=O)[C@]23SS[C@@]1(C)C(=O)N2[C@H]1Nc2ccccc2[C@@]1([C@@]12c4ccccc4N[C@@H]1N1C(=O)[C@@]4(C)SS[C@]1(C(=O)N4C)[C@H]2O)[C@@H]3O", "target": "Histone-lysine N-methyltransferase, H3 lysine-79 specific (DOT1L, Homo sapiens, UniProt Q8TEK3)", "test": "methyltransferase activity, inhibitor", "conditions": "with: 1 µM [3H]SAM", "IC50": "> 10000 nM"}
{"SMILES": "COc1ccc(NC(=O)N2CCCCCN3[C@H](CO)[C@H](c4ccc(C#Cc5ccccc5)cc4)[C@@H]3C2)cc1", "target": "Phenylalanine--tRNA ligase alpha subunit (Plasmodium falciparum, UniProt Q8I246)", "test": "aminoacylation activity, inhibitor", "IC50": "97 nM"}
{"SMILES": "O=C(CNC(=S)NN=Cc1ccc([N+](=O)[O-])cc1)c1ccccc1O", "target": "Cholinesterase (BCHE, Equus caballus, UniProt P81908)", "test": "enzyme activity, inhibitor, Ellman method", "conditions": "with: butyrylthiocholine iodide", "IC50": "270260 ± 190 nM"}
{"SMILES": "NS(=O)(=O)c1ccc(N/C=C2\\C(=O)Nc3ccc4ncsc4c32)cc1", "target": "ROP18", "test": "enzyme activity, inhibitor", "IC50": "2930 nM"}
{"SMILES": "COC(=O)[C@@]1(O)C[C@H]2O[C@]1(C)n1c3ccccc3c3c4c(c5c6ccccc6n2c5c31)C(=O)NC4", "target": "Leucine-rich repeat serine/threonine-protein kinase 2 (LRRK2, Homo sapiens, UniProt Q5S007)", "test": "LRRKtide phosphorylation, inhibitor", "conditions": "25 °C, with: 1 µM ATP", "IC50": "~25 nM"}
{"SMILES": "CCCCCCCCCCCCC/C=C/[C@@H](O)[C@@H](N)COP(=O)(O)OCC[N+](C)(C)C", "target": "Ryanodine receptor 1 (RYR1, Oryctolagus cuniculus, UniProt P11716)", "test": "channel open probability, inhibitor, planar lipid bilayer", "conditions": "with: free Ca2+ 22 µM, no calmodulin", "IC50": "1300 ± 300 nM"}
{"SMILES": "CCc1cncnc1N1CCN(Cc2nc3ccc(C(F)(F)F)cc3[nH]2)CC1", "target": "ERRα (human)", "test": "reporter gene, antagonist, luciferase reporter qHTS", "IC50": "6680 nM"}
{"SMILES": "O=[N+]([O-])c1cc2nc(O)c(O)nc2cc1[N+](=O)[O-]", "target": "Lysosomal acid glucosylceramidase (GBA1, Homo sapiens, UniProt P04062, R534H)", "test": "enzyme activity, inhibitor", "conditions": "pH 5.9, 1.9 nM enzyme, with: 30 µM resorufin β-glucoside", "IC50": "4770 nM"}
{"SMILES": "CCCCNNC(=O)c1ccc(Br)cc1", "target": "Histone deacetylase 1 (HDAC1, Homo sapiens, UniProt Q13547)", "test": "enzyme activity, inhibitor", "IC50": "460 nM"}
{"SMILES": "Cc1cccc(C)c1S", "target": "Potassium/sodium hyperpolarization-activated cyclic nucleotide-gated channel 1 (Hcn1, Mus musculus, UniProt O88704)", "test": "channel gating (V1/2 shift), inhibitor, two-electrode voltage clamp", "test system": "Xenopus oocytes", "IC50": "408000 ± 55000 nM"}
{"SMILES": "CCCCCC(=O)N[C@H](C(=O)N[C@@H](CCS(C)(=O)=O)C(=O)N[C@@H](CC(C)C)C(=O)[C@@]1(C)CO1)C(C)C", "target": "PSMB5 (Oryctolagus cuniculus, UniProt G1T4Q9)", "test": "chymotrypsin-like activity, inhibitor, fluorogenic substrate", "test system": "rabbit muscle 26S proteasome", "IC50": "22.5 nM"}
{"SMILES": "CN1CC[C@]2(C)c3cc(OC(=O)Nc4ccccc4)ccc3N(C)[C@H]12", "target": "Cholinesterase (BCHE, Homo sapiens, UniProt P06276)", "test": "enzyme activity, inhibitor, immobilized enzyme reactor, HPLC-UV", "test system": "immobilized recombinant human enzyme", "conditions": "inhibition plateau, L-tartrate salt", "IC50": "49300 ± 1500 nM"}
{"SMILES": "Nc1ncnc2c1ncn2Cc1nc2ccccc2c2cc[nH]c12", "target": "human PDE4 from U-937 cells", "test": "enzyme activity, inhibitor", "conditions": "20 min, pH 7.5, 25 °C, with: [3H]cAMP 1.10 µM", "IC50": "6100 nM"}
{"SMILES": "CC1=C(C(=O)NC(=O)c2cnccn2)C(c2ccc(Cl)cc2)NC(=O)N1 (stereo not shown)", "target": "Cholinesterase (BCHE, Equus caballus, UniProt P81908)", "IC50": "4750 ± 10 nM"}
{"SMILES": "[O-][n+]1c(CCl)nc2cccc3c2c1-c1ccccc1-3", "target": "TP53/Luciferin 4-monooxygenase (Homo sapiens, UniProt P04637+P08659, D436G/I423L/L530R)", "test": "p53 DNA binding, inhibitor, luciferase complementation", "IC50": "6100 nM"}
{"SMILES": "c1cc(OC[C@@H]2CCCN2)ccn1", "target": "Neuronal acetylcholine receptor; alpha4/beta2 (Rattus norvegicus, UniProt P09483+P12390)", "test": "ligand displacement, radioligand", "conditions": "cell membranes", "IC50": "303000 nM"}
{"SMILES": "O=C([O-])c1ccccc1-c1c2cc(Br)c(=O)cc-2oc2[c]([Hg+])c([O-])c(Br)cc12.[Na+].[Na+].[OH-]", "target": "Histone-lysine N-methyltransferase SETD2 (SETD2, Homo sapiens, UniProt Q9BYW2)", "test": "enzyme activity, inhibitor", "IC50": "2400 nM"}
{"SMILES": "C/C=C1\\NC(=O)C(NC(=O)[C@H](CC[S+](C)[O-])NC(=O)[C@@H](NC(=O)CCC)[C@@H](C)CC)C(C)OC(=O)[C@H](C(C)C)NC(=O)[C@H](Cc2ccc(O)cc2)N(C)C(=O)[C@H](Cc2ccccc2)N2C(=O)[C@H](CCC2O)NC1=O (stereo partly shown)", "target": "Proteinase K (PROK, Engyodontium album, UniProt P06873)", "test": "enzyme activity, inhibitor, fluorescence", "conditions": "pH 7.4", "IC50": "216 nM"}
{"SMILES": "CC(=O)OC[C@H]1O[C@@H]([S-])[C@H](OC(C)=O)[C@@H](OC(C)=O)[C@@H]1OC(C)=O.CCP(CC)CC.[Au+]", "target": "Thioredoxin glutathione reductase (Schistosoma mansoni, UniProt Q962Y6)", "test": "DTNB reduction, inhibitor", "conditions": "10 min preincubation with NADPH, with: 3 mM DTNB", "IC50": "3.2 nM"}
{"SMILES": "N=C(N)NCc1ccc(C(=O)NCCCCC(NC(=O)NC(CCC(=O)O)C(=O)O)C(=O)O)cc1I (stereo not shown)", "target": "Glutamate carboxypeptidase 2 (FOLH1, Homo sapiens, UniProt Q04609)", "test": "enzyme activity, inhibitor, fluorescence", "conditions": "lysate", "IC50": "2.24 nM"}
{"SMILES": "Cn1cc(C2=C(c3cn(CCCN)c4ccccc34)C(=O)NC2=O)c2ccccc21", "target": "Putative glycogen synthase kinase (Leishmania major, UniProt Q4QE15, D105E/Y102F)", "test": "enzyme activity, inhibitor", "conditions": "90 min, 30 °C, with: ATP 2 µM", "IC50": "890 nM"}
{"SMILES": "Nc1ncnc2c1ncn2[C@@H]1O[C@H](COP(=O)(O)O)[C@@H](OP(=O)(O)O)[C@H]1O", "target": "sfp (Bacillus subtilis, UniProt P39135)", "test": "phosphopantetheinylation, inhibitor, fluorescence polarization", "conditions": "45 min, pH 7.6, 10% DMSO, with: VibB 10 µM and rhodamine-CoA 5 µM", "IC50": "7000 ± 1000 nM"}
{"SMILES": "O=C(O)Cc1ccc(OC(=O)NCCCCCn2ccc3ccc(F)cc32)cc1", "target": "Cholinesterase (BCHE, Equus caballus, UniProt P81908)", "test": "enzyme activity, inhibitor, HPLC", "IC50": "> 10000 nM"}
{"SMILES": "CCC(=O)Nc1cc(Nc2cc(NC3CC3)n3ncc(C#N)c3n2)ccc1N1CCNCC1", "target": "Casein kinase II subunit alpha' (CSNK2A2, Homo sapiens, UniProt P19784)", "test": "target engagement in cells, BRET", "IC50": "200 nM"}
{"SMILES": "Oc1ccc(-c2cc(Cl)cc(Cl)c2)cc1Cl", "target": "Sulfotransferase 2A6 (Sult2a6, Rattus norvegicus, UniProt P22789)", "test": "enzyme activity, inhibitor", "conditions": "6 min, 37 °C, with: DHEA 10 µM", "IC50": "~50000 nM"}
{"note": "Excerpt of the above:"}
{"SMILES": "CC(C)COC(=O)c1ccc2c(c1)/C(=C/Nc1ccc(S(N)(=O)=O)cc1)C(=O)N2", "target": "ROP18", "test": "enzyme activity, inhibitor", "IC50": "170 nM"}
{"SMILES": "NC(=S)Nc1ccccc1", "target": "Thyroid peroxidase (Tpo, Rattus norvegicus, UniProt P14650)", "test": "enzyme activity, inhibitor, LC-MS/MS, measured: monoiodotyrosine", "test system": "rat thyroid microsomes", "conditions": "with: L-tyrosine substrate", "IC50": "3510 nM and 2170 nM"}
{"SMILES": "CSCC[C@H](NC(=O)[C@H](C)N)C(=O)N[C@@H](CCCNC(=N)N)C(=O)N[C@@H](CC(C)C)C(=O)N[C@H](C(=O)N[C@@H](Cc1c[nH]cn1)C(=O)N[C@@H](CC(N)=O)C(=O)N[C@@H](Cc1ccccc1)C(=O)N[C@@H](Cc1ccccc1)C(=O)N[C@@H](Cc1ccccc1)C(=O)N[C@@H](CC(N)=O)C(=O)N[C@@H](Cc1ccccc1)C(=O)N[C@@H](Cc1ccccc1)C(=O)N[C@@H](CCCCN)C(=O)N[C@@H](CCCNC(=N)N)C(=O)N[C@@H](CCCNC(=N)N)C(=O)O)[C@@H](C)O", "target": "histidine kinase ComD (Streptococcus pneumoniae serotype 4, UniProt A0A0H2US84)", "test": "reporter gene, antagonist", "test system": "Streptococcus pneumoniae, TIGR4 comX::lacZ", "conditions": "30 min, 37 °C, with: CSP2 250 nM", "IC50": "> 10000 nM"}
{"SMILES": "COc1cc2c(cc1O)CC[n+]1cc3c(OC)c(OC)ccc3c(C)c1-2", "target": "D(4) dopamine receptor (DRD4, Homo sapiens, UniProt P21917)", "test": "calcium mobilization, antagonist, FLIPR", "test system": "HEK293T with Galpha15", "conditions": "10 min preincubation, D4 receptor, with: dopamine at EC50", "IC50": "8400 nM"}
{"SMILES": "O=C(O)c1ccccc1Nc1ccc(Cc2ccccc2)cc1", "target": "Androgen receptor (AR, Homo sapiens, UniProt P10275)", "test": "reporter gene, antagonist, MMTV-Luc reporter", "test system": "MDA-kb2", "conditions": "20 h, with: 0.2 nM DHT (EC50)", "IC50": "2200 ± 1000 nM"}
